Published values pooled from the literature.
Parts stem from different laboratories: compare values within a part only.
Chain of UniProt Q16620 (whole entry, looked up): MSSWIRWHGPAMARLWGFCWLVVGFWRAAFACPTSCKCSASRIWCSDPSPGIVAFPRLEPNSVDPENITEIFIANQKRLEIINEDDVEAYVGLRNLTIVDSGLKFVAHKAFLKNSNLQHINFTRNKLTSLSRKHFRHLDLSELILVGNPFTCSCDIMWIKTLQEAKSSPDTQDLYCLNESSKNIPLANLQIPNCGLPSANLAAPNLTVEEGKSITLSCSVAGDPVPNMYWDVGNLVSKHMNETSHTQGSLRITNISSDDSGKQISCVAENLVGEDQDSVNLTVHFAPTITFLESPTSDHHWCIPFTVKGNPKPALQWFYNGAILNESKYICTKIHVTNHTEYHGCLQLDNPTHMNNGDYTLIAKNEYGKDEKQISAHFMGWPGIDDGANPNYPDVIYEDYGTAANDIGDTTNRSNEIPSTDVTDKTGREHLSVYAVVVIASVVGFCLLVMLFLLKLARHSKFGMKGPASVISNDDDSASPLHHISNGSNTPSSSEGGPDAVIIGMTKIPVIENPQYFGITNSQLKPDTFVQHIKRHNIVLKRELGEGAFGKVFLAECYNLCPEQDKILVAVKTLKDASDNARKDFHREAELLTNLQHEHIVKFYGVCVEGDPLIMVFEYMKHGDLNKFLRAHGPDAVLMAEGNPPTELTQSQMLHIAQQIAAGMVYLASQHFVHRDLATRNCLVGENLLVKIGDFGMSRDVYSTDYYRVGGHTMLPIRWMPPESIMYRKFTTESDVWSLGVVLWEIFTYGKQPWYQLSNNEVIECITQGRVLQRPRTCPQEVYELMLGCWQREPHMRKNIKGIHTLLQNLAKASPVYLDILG
Chain of UniProt O43318 (whole entry, looked up): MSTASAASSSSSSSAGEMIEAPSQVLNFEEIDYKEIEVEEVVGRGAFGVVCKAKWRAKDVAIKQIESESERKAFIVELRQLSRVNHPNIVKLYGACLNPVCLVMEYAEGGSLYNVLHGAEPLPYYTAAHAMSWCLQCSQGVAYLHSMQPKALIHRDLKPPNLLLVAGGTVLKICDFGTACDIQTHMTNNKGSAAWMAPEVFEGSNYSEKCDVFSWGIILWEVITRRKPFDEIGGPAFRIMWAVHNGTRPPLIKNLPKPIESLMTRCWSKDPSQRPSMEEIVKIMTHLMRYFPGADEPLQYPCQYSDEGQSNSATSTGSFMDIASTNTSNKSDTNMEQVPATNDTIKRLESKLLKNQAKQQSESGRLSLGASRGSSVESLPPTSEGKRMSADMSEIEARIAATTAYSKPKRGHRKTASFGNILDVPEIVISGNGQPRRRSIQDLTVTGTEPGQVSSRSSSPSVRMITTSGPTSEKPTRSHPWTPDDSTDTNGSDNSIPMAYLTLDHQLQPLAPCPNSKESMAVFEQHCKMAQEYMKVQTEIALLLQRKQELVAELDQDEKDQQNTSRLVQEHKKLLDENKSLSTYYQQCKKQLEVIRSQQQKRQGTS
Chain of UniProt P15056 (whole entry, looked up): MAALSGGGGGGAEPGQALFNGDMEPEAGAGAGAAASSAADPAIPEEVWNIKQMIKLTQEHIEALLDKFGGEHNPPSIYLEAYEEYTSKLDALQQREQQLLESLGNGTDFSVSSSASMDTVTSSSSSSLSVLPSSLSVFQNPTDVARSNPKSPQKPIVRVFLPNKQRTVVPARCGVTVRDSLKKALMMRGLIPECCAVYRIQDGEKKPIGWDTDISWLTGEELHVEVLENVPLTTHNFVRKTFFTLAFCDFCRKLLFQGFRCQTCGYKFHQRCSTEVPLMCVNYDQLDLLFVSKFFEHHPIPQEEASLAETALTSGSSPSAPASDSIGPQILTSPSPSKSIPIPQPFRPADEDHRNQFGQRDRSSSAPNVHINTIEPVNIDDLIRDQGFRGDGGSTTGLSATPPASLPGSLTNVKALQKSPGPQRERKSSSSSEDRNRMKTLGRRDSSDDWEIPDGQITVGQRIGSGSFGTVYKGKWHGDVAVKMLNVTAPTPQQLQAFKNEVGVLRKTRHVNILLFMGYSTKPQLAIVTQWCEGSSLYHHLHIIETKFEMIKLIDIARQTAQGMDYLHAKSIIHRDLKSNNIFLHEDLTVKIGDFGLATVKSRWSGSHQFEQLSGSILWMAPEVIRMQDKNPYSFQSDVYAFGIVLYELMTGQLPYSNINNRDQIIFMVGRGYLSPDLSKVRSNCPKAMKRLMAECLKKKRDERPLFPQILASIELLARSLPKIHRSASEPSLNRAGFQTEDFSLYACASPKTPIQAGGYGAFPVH
Chain of UniProt Q8IY84 (whole entry, looked up): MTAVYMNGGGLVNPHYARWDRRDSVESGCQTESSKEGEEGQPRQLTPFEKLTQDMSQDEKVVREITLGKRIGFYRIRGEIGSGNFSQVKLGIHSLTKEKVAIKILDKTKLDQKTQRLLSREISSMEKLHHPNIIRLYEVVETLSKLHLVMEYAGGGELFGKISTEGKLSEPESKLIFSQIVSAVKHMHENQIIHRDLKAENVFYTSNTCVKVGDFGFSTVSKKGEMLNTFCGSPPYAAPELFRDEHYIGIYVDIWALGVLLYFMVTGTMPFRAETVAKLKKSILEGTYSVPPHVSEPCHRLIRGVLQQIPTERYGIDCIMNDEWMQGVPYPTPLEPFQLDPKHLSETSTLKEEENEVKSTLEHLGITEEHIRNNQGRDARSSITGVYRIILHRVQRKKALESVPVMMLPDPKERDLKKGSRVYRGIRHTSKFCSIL
Chain of UniProt Q8NEB9 (whole entry, looked up): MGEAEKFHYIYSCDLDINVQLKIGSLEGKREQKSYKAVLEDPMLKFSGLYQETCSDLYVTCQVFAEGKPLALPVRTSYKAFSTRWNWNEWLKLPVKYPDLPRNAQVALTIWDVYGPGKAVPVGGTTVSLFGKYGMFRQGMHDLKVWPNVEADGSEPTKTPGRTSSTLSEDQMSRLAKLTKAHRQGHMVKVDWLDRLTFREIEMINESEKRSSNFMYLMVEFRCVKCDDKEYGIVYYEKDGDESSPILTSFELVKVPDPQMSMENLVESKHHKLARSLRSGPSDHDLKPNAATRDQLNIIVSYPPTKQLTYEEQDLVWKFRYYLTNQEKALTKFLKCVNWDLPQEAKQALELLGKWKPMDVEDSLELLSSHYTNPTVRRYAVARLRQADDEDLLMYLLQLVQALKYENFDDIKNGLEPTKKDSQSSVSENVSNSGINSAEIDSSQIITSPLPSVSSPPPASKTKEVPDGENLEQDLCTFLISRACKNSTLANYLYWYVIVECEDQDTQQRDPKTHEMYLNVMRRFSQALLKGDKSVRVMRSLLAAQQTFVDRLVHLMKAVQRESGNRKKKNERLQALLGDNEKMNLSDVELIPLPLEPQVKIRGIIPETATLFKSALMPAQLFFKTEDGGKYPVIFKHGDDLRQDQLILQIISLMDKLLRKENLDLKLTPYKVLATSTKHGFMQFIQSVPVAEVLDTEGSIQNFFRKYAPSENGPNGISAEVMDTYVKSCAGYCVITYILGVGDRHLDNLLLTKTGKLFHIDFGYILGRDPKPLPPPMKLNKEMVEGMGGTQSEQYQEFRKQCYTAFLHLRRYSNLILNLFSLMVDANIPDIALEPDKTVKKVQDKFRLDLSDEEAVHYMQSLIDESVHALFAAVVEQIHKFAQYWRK

Sample 1
Compound: O=C(NCCCC1CCCCC1)c1ccc(CNC(=O)c2cnn(-c3ccccc3)c2C(F)(F)F)cc1
Effect on: cell-free assay
Technique: competition with immobilised ligand
Tested at: 0.1 µM
The remaining binding was 92% (Ribosomal protein S6 kinase alpha-6, C-terminal kinase domain (RPS6KA6, Homo sapiens, UniProt Q9UK32)).
Activin receptor type-1-like (ACVRL1, Homo sapiens, UniProt P37023) — remaining binding: 100%.
The remaining binding was 92% (Death-associated protein kinase 3 (DAPK3, Homo sapiens, UniProt O43293)).
It gave 100% for remaining binding (Phosphatidylinositol 3-kinase catalytic subunit type 3 (PIK3C3, Homo sapiens, UniProt Q8NEB9)).
The remaining binding was 73% (Dual specificity mitogen-activated protein kinase kinase 5 (MAP2K5, Homo sapiens, UniProt Q13163)).
For Serine/threonine-protein kinase BRSK2 (BRSK2, Homo sapiens, UniProt Q8IWQ3): remaining binding read 100%.
For Mitogen-activated protein kinase kinase kinase 7 (MAP3K7, Homo sapiens, UniProt O43318): remaining binding read 89%.
It gave 70% for remaining binding (Serine/threonine-protein kinase NIM1 (NIM1K, Homo sapiens, UniProt Q8IY84)).
It gave 90% for remaining binding (Phosphatidylinositol 4-phosphate 5-kinase type-1 gamma (PIP5K1C, Homo sapiens, UniProt O60331)).
BDNF/NT-3 growth factors receptor (NTRK2, Homo sapiens, UniProt Q16620) — remaining binding: 100%.
The remaining binding was 100% (Receptor-type tyrosine-protein kinase FLT3 (FLT3, Homo sapiens, UniProt P36888, ITD)).
It gave 88% for remaining binding (Receptor-type tyrosine-protein kinase FLT3 (FLT3, Homo sapiens, UniProt P36888, N841I)).
For Phosphatidylinositol 4,5-bisphosphate 3-kinase catalytic subunit alpha isoform (PIK3CA, Homo sapiens, UniProt P42336, I800L): remaining binding read 70%.
For Serine/threonine-protein kinase B-raf (BRAF, Homo sapiens, UniProt P15056): remaining binding read 100%.

Sample 2
Target: Serine/threonine-protein kinase D3 (PRKD3, Homo sapiens, UniProt O94806)
Chain of UniProt O94806 (whole entry, looked up): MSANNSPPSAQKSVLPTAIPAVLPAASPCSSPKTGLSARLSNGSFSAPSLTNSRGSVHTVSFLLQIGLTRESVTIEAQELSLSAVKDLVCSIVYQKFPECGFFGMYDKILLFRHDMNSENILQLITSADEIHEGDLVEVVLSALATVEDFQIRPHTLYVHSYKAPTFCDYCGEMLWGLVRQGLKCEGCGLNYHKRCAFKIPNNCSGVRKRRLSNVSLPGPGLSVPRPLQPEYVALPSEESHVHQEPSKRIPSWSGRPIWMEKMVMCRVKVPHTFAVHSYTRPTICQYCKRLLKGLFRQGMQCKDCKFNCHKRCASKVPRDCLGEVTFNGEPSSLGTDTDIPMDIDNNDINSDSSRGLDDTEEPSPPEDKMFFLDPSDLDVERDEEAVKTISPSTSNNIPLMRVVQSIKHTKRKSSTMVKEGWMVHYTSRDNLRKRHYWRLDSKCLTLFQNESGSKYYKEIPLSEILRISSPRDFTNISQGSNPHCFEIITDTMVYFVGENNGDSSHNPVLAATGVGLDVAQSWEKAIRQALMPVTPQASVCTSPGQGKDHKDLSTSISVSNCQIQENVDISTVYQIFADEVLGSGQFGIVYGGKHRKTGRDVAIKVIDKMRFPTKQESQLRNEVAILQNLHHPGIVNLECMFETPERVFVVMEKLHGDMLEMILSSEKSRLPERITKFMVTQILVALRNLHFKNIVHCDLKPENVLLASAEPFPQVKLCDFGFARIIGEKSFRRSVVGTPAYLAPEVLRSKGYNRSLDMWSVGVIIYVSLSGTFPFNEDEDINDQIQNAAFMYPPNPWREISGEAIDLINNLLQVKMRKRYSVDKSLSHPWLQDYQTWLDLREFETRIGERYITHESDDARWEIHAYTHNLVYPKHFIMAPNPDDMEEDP
Effect on: enzyme activity
Mode: inhibitor
Tested at: 0.5 µM
Baseline: control
N#C/C(=C\c1ccc(O)c(O)c1)C(=O)NCc1ccccc1 has a remaining activity of 90.2%.
With COc1cc2c(cc1OC)-c1[nH]nc(Nc3cccc(F)c3)c1C2 the remaining activity was 93.1%.
Nc1cccc(-c2cc3c(Oc4cccc(O)c4)ncnc3[nH]2)c1 has a remaining activity of 91%.
For Cc1cn(-c2cc(NC(=O)c3ccc(C)c(Nc4nccc(-c5cccnc5)n4)c3)cc(C(F)(F)F)c2)cn1, the remaining activity was 89.4%.
For Cn1nc2c3c(cccc31)C(=O)c1ccccc1-2, the remaining activity was 65.5%.
For CCN(CC)C(=O)c1ccc(Nc2nc(OCC3CCCCC3)c3[nH]cnc3n2)cc1, the remaining activity was 66.5%.
For Cc1nc2cc3nc(-c4cccs4)cnc3cc2n1C, the remaining activity was 97.1%.
For CN([C@@H](Cc1ccc(OS(=O)(=O)c2cccc3cnccc23)cc1)C(=O)N1CCN(c2ccccc2)CC1)S(=O)(=O)c1cccc2cnccc12, the remaining activity was 99.2%.
O=c1cc(-c2cccc3c2Sc2ccccc2S3)oc(N2CCOCC2)c1 gave a remaining activity of 83.4%.

Sample 3
Target: Ras GTPase-activating protein-binding protein 1, C-terminal RGG region (G3BP1, Homo sapiens, UniProt Q13283)
Chain of UniProt Q13283 (whole entry, looked up): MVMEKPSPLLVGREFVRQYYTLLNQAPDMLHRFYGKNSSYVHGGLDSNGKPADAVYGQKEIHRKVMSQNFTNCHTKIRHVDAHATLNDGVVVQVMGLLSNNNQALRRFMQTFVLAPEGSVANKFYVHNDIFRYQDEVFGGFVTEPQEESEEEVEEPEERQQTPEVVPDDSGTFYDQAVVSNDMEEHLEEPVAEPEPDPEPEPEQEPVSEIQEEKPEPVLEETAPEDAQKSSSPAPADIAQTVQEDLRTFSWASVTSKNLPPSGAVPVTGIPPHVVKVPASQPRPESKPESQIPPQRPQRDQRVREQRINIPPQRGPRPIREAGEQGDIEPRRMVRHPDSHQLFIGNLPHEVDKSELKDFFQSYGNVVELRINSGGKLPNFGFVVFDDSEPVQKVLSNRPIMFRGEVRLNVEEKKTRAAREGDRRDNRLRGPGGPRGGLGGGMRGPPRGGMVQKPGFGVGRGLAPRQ
Technique: RNA Bind-n-Seq
Form: RNA
Medium: in vitro
Tested at: 1 µM
Setting: whole 134-nt RNA, ends assumed
With: 150 mM KCl
Baseline: input library
Direction: higher = stronger binding
Shared flanks, not repeated: GGGAGUUCUACAGUCCGACGAUC … UGGAAUUCUCGGGUGUCAAGG
For `CCUGUGCUACACAUCGUAUGUACCGAAUCGGGAAAAAAGGGAAAAAAGGGGAAAAAAGGGAAAGUAUUAUGUUACGCCGUUCGGAUCUGC`, the log2 enrichment was -1.43.
With `UCAAGUCCUGUGCUACACAUCGUAUGUACCGAAUCGGAGGUUUUUUUGGUUUGGAAAGUAUUAUGUUACGCCGUUCGGAUCUGCACUUCC` the log2 enrichment was -1.49.
For `UCAAGUCCUGUGCUACACAUCGUAUGUACCGAAUCGGGAAAGGGGAAAGGAAAGGAAAGUAUUAUGUUACGCCGUUCGGAUCUGCACUUC`, the log2 enrichment was -1.46.
With `CAAGUCCUGUGCUACACAUCGUAUGUACCGAAUCGGGUUUUUUUGGGAGGGAGGGAAAGUAUUAUGUUACGCCGUUCGGAUCUGCACUUC` the log2 enrichment was 1.42.
The log2 enrichment of `CAAGUCCUGUGCUACACAUCGUAUGUACCGAAUCGGGGAGGGGAAAGGGGAGGGGAAAGUAUUAUGUUACGCCGUUCGGAUCUGCACUUC` is reported as 3.31.
The log2 enrichment of `UAACUUUAGAGGAGGAUCUGAUGGAUAUGGCAGUGGACGUGGAUUUGGGGAUGGCUAUACUGGGUAUGGAGGAGGACCUGGAGGUGGCAA` is reported as -0.857.
With `UCAAGUCCUGUGCUACACAUCGUAUGUACCGAAUCGGAGGAAAAAAAGGAAAGGAAAGUAUUAUGUUACGCCGUUCGGAUCUGCACUUCC` the log2 enrichment was -1.43.
`UGGGAGGUGGAUUUUGUUUAUUUUUUUAACUCAUUUCCAGGGGUGGGAAUUUUUUUUUAAUAUGUGUCAUGAAUAAAGUUGUUUUUGAAA` gave a log2 enrichment of 3.57.

Sample 4
Cell line: mouse MPNST tumor cells
Technique: high-content immunofluorescence imaging
Measured: nuclear SOX9
Tested at: 10 µM
Time: 12 h
Setting: mean of 2 replicates
Baseline: DMSO control
Direction: higher = more nuclear SOX9
For C=CC1=C(C)c2cc3nc(cc4[nH]c(cc5[nH]c(cc1n2)c(C)c5CCC(=O)O)c(CCC(=O)OC)c4C)C1(C)C3=CC=C(C(=O)OC)C1C(=O)OC (centres unmarked), “nuclear SOX9 intensity” read 89.3 % of DMSO.
For Cc1cc(C)c(N(Cc2ccccc2)S(=O)(=O)c2ccc(OCCNC(=O)c3cc4ccccc4o3)cc2)c(C(=O)NO)c1, “nuclear SOX9 intensity” read 142 % of DMSO.
Under “nuclear SOX9 intensity”, COc1cccc(-c2cc(=O)c3ccccc3o2)c1N is recorded as 83.4 % of DMSO.
Under “nuclear SOX9 intensity”, COc1cc(O)c(CC=C(C)C)c(O)c1C(=O)/C=C/c1ccc(O)cc1 is recorded as 179 % of DMSO.
Under “nuclear SOX9 intensity”, C[C@H]1Oc2cc(cnc2N)-c2c(nn(C)c2C#N)CN(C)C(=O)c2ccc(F)cc21 is recorded as 109 % of DMSO.
Cc1cc(=O)oc2cc(O)ccc12: “nuclear SOX9 intensity” 85.1 % of DMSO.
For Nc1cccc(CNC(=O)c2ccc(Oc3ccc(OCc4cccc(F)c4)cc3)nc2)c1, “nuclear SOX9 intensity” read 100 % of DMSO.

A few entries again (sample 4):
Under “nuclear SOX9 intensity”, COc1cccc(-c2cc(=O)c3ccccc3o2)c1N is recorded as 83.4 % of DMSO.
Cc1cc(=O)oc2cc(O)ccc12: “nuclear SOX9 intensity” 85.1 % of DMSO.
For C=CC1=C(C)c2cc3nc(cc4[nH]c(cc5[nH]c(cc1n2)c(C)c5CCC(=O)O)c(CCC(=O)OC)c4C)C1(C)C3=CC=C(C(=O)OC)C1C(=O)OC (centres unmarked), “nuclear SOX9 intensity” read 89.3 % of DMSO.
Under “nuclear SOX9 intensity”, COc1cc(O)c(CC=C(C)C)c(O)c1C(=O)/C=C/c1ccc(O)cc1 is recorded as 179 % of DMSO.
